Assay results pooled from the literature.
Parts stem from different laboratories: compare values within a part only. Changes are numbered by the printed parent chain.

Block 1
Target: ATF1, bZIP domain (human)
Technique: DHFR protein complementation
Sample: yeast
Setting: single substitutions, most at no-binding floor
Baseline: wild-type JUN-FOS pair
Direction: higher = stronger binding
Starting sequence: JUN, bZIP domain (human); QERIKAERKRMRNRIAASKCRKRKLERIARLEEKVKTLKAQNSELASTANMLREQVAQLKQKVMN; partner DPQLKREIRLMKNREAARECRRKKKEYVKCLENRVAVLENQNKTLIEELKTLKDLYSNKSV
Variant	binding fitness [natural log]
L45P	-1.53
S47I	-1.26
E54W	-1.53
L38M	-1.67
A29R	-1.42
T48G	-1.51
E32I	-1.51
V35G	-1.53

Block 2
Target: POU domain, class 5, transcription factor 1, POU domain (Pou5f1, Mus musculus, UniProt P20263, residues 131-289)
UniProt P20263, sequence (131-289, looked up): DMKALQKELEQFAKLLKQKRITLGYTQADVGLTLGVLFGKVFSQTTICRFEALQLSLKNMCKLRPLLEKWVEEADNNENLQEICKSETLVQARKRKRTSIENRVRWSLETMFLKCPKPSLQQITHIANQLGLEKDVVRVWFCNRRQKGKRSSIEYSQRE
Technique: Spec-seq
Molecule type: double-stranded DNA, one strand shown
Sample: in vitro
Tested at: not given
Setting: whole probe, mean of replicates
Baseline: not given
Direction: lower = stronger binding
Shared flanks, not repeated: GAGTCGTCTCGTCAGCAC … CCGTAGAGCACTCAGGTC
Strand	relative binding energy
TGGCTAAT	0.725 ln ratio
ATAGGGAT	0.598 ln ratio
ATTAGGAT	0.261 ln ratio
ATGCACGG	0.258 ln ratio
ATGCAGAA	-0.515 ln ratio
ATGCTTTC	0.467 ln ratio
ATGCGACA	0.156 ln ratio
ATCGGTAT	0.593 ln ratio

Further values, each from its own experiment
FOXP2 N-truncated, polyQ removed: Forkhead box protein P2, N-truncated, polyQ removed (FOXP2, Homo sapiens, UniProt O15409, residues 214-715)
UniProt O15409, sequence (214-715, unmodified, looked up): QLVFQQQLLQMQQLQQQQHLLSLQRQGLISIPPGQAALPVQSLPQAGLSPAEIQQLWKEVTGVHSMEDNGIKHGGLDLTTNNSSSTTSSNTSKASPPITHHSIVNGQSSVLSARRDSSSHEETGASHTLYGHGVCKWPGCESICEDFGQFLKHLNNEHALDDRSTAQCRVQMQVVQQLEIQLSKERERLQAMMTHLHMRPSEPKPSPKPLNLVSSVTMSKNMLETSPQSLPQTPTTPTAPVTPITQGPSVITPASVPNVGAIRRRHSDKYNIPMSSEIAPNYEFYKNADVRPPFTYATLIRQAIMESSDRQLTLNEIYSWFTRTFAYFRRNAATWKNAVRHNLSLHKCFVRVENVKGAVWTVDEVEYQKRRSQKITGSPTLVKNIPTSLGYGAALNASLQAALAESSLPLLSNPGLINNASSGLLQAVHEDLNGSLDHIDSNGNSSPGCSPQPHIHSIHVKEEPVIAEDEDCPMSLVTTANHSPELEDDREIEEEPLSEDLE
Molecule	target or system	assay	test system	conditions	scale	endpoint	value
CGCCTGTTACGGCATCAGGGCTTTGGTTTGGGATGGCTGCTTATTTACCAATTGTTCCGGCGGTATGAC	FOXP2 N-truncated, polyQ removed	MITOMI	double-stranded DNA, one strand shown, in vitro	not given, 69-bp whole dsDNA, apparent Ka, titration fit	baseline: unmutated reference site, higher = stronger binding	relative association constant	0.504 fold
CCS(=O)(=O)c1cc2cc(C[C@](O)(CC(C)(C)c3ccc(F)cc3C(N)=O)C(F)(F)F)[nH]c2cn1	normal organoid sample H	CellTiter-Glo	human, normal-adjacent epithelium	1 µM	baseline: DMSO	viability	93.1%
CGCCTGTTACGGCATCAGGGCTTTGGTTTGGGATGGCTGCTAGTTTACCAATTGTTCCGGCGGTATGAC	FOXP2 N-truncated, polyQ removed	MITOMI	double-stranded DNA, one strand shown, in vitro	not given, 69-bp whole dsDNA, apparent Ka, titration fit	baseline: unmutated reference site, higher = stronger binding	relative association constant	0.0651 fold
